Assay results from different studies.
Each line is one published result; not all experiments were run side by side. In brackets after ≈: the same amount, converted by molar mass.

COc1ccc2[nH]ccc2c1  EC90 (Cryptosporidium parvum; parasite growth; HCT-8; 24 h, intracellular): 1490 µM
CO[C@H]1C[C@@H]2CC[C@@H](C)[C@@](O)(O2)C(=O)C(=O)N2CCCC[C@H]2C(=O)O[C@H]([C@H](C)C[C@@H]2CC[C@@H](O)[C@H](OC)C2)CC(=O)[C@H](C)/C=C(\C)[C@@H](O)[C@@H](OC)C(=O)[C@H](C)C[C@H](C)/C=C/C=C/C=C/1C  MIC (Staphylococcus aureus; microbial growth; NCTC8325): > 30 µM
O=C(CNc1ccccc1N1CCCC1=O)Nc1ccc(Oc2ccc(C(F)(F)F)cc2)cc1  EC50 (Plasmodium falciparum; parasite growth; 3D7; 72 h, blood stage): > 10 µM
CN1CCN(c2nc(C3=C(c4c[nH]c5ccccc45)C(=O)NC3=O)c3ccccc3n2)CC1  MIC (Staphylococcus aureus; microbial growth; NCTC8325): > 30 µM
CN(CC(=O)Nc1ccc(N(C)c2ccc(F)c(F)c2)cc1)c1ccccc1N1CCCC1=O  EC50 (Plasmodium falciparum; parasite growth; 3D7; 72 h, blood stage): 0.051 µM
C=C[C@]1(C)C[C@@H](OC(=O)CS[C@@H]2C[C@H]3CC[C@@H](C2)N3C)[C@]2(C)[C@H](C)CC[C@]3(CCC(=O)[C@H]32)[C@@H](C)[C@@H]1O  MIC90 (Streptococcus pneumoniae; microbial growth; clinical isolate): 0.0312 mg/L (≈ 0.0604 µM)
O=C(O)Cc1ccc(O)cc1  activity vs control (Cryptosporidium parvum; parasite growth, imaging; HCT-8; 1 mM, 24 h, intracellular): 106%
COc1cc(-c2[nH]nnc2C(=O)c2ccccc2)ccc1O  activity vs control (Pseudomonas aeruginosa; microbial growth, absorbance; 100 µM, 24 h): 92%
Cc1ccc(N(c2ccc(NC(=O)CN(C)c3ccccc3N3CCCC3=O)cc2)C2CCCC2)cc1  EC50 (Plasmodium falciparum; parasite growth; 3D7; 72 h, blood stage): 0.035 µM
C[C@@]12COCO[C@@H]1CC[C@]1(C)[C@@H]2CC[C@@H]2CN(Cc3ccco3)[C@@H](C3=CCOC3=O)C[C@H]21  inhibition (unidentified human coronavirus; cytopathic effect; MRC5; 25 µM, 72 h): 41.7%
C#CCOC(=O)ON=C1C=CC(=C(C#N)c2ccccc2)C=C1  MFC (Candida tropicalis; microbial killing, broth dilution; ATCC13803; 48 h): 16 mg/L (≈ 52.6 µM)
CO[C@H]1C[C@@H]2CC[C@@H](C)[C@@](O)(O2)C(=O)C(=O)N2CCCC[C@H]2C(=O)O[C@H]([C@H](C)C[C@@H]2CC[C@@H](OP(C)(C)=O)[C@H](OC)C2)CC(=O)[C@H](C)/C=C(\C)[C@@H](O)[C@@H](OC)C(=O)[C@H](C)C[C@H](C)/C=C/C=C/C=C/1C  MIC (Staphylococcus aureus; microbial growth; NCTC8325): > 30 µM
Cc1ccc(Oc2ccc(NC(=O)CN(C)c3ccccc3N3CCCC3=O)cc2)cc1  EC50 (Plasmodium falciparum; parasite growth; 3D7; 72 h, blood stage): 0.503 µM
CN(Cc1ccc(C(C)(C)C)cc1)Cc1cccc2ccccc12  inhibition zone (Trichophyton rubrum; microbial growth, disc diffusion; ATCC28188; 0.002 µg/mL, 6 days): 36 mm
CCOc1cc2ncc(C#N)c(Nc3ccc(OCc4ccccn4)c(Cl)c3)c2cc1NC(=O)/C=C/CN(C)C  MIC (Staphylococcus aureus; microbial growth; NCTC8325): > 30 µM
COC(=O)Nc1nc2cc(C(=O)c3ccc(F)cc3)ccc2[nH]1  IC50 (Cryptococcus neoformans; microbial growth, broth dilution; 72 h, clinical isolate): 1.25 µM
COc1ccc(C=NNC(=O)CSc2nc3ccc(Cl)cc3c(=O)n2-c2ccccc2)cc1OS(C)(=O)=O  inhibition zone (Pseudomonas aeruginosa; microbial growth, well diffusion; 20 µg/mL): 3 mm
Cc1ncc(CO)c(CO)c1O  activity vs control (Cryptosporidium parvum; parasite growth, imaging; HCT-8; 1 mM, 24 h, intracellular): 78.7%
Cc1ccc(C(C)c2ccc(NC(=O)CN(C)c3ccccc3N3CCCC3=O)cc2)cc1 (centres unmarked)  EC50 (Plasmodium falciparum; parasite growth; 3D7; 72 h, blood stage): 0.455 µM
CC(=O)N[C@H]1[C@H]([C@H](O)[C@H](O)CO)OC(O)(C(=O)O)C[C@@H]1O (some centres unmarked)  activity vs control (Cryptosporidium parvum; parasite growth, imaging; HCT-8; 1 mM, 24 h, intracellular): 103%
OC(C#Cc1ccc(F)c(F)c1)c1ccccc1 (centres unmarked)  activity vs control (Pseudomonas aeruginosa; microbial growth, absorbance; 10 µM, 24 h): 94%
CN(Cc1ccc(C2(C(F)(F)F)CC2)cc1)Cc1cccc2ccccc12  inhibition zone (Trichophyton rubrum; microbial growth, disc diffusion; ATCC28188; 0.032 µg/mL, 6 days): 55 mm
Nc1ccn([C@H]2C[C@H](O)[C@@H](COP(=O)(O)O)O2)c(=O)n1  activity vs control (Cryptosporidium parvum; parasite growth, imaging; HCT-8; 1 mM, 24 h, intracellular): 103%
COc1ccc(Oc2ccc(NC(=O)CNc3ccccc3N3CCCC3=O)cc2)cc1  EC50 (Plasmodium falciparum; parasite growth; 3D7; 72 h, blood stage): 4.15 µM
COC(=O)c1sc(C(C)(C)C)cc1NC(=O)Nc1ccc(Oc2ccccc2)cc1  MIC (Staphylococcus aureus; microbial growth; NCTC8325): > 100 µM
Cc1ccc(Oc2ccc(NC(=O)CNc3ccccc3N3CCCS3(=O)=O)cc2)cc1  EC50 (Plasmodium falciparum; parasite growth; 3D7; 72 h, blood stage): > 10 µM
CC(C)(O)CC(=O)NCCn1ccc2ncnc(Nc3ccc(Oc4cccc(C(F)(F)F)c4)c(Cl)c3)c21  MIC (Staphylococcus aureus; microbial growth; NCTC8325): 30 µM (≈ 16.4 µg/mL)
O=C(C#Cc1ccc(F)c(F)c1)c1ccccc1  activity vs control (Pseudomonas aeruginosa; microbial growth, absorbance; 100 µM, 24 h): 82%
FC(F)(F)c1ccc(/C=C/c2nc(COc3ccc(CCCCn4ccnn4)cc3)co2)cc1  MIC (Staphylococcus aureus; microbial growth; NCTC8325): > 30 µM
COc1cc(C#CC(=O)c2ccc(Cl)cc2)ccc1O  activity vs control (Pseudomonas aeruginosa; microbial growth, absorbance; 100 µM, 24 h): 97%
CC(O)C(=O)O (centres unmarked)  activity vs control (Cryptosporidium parvum; parasite growth, imaging; HCT-8; 1 mM, 24 h, intracellular): 105%
COc1ccc(C(=O)C#Cc2ccc(F)c(F)c2)cc1  activity vs control (Pseudomonas aeruginosa; microbial growth, absorbance; 100 µM, 24 h): 81%
Cc1ccc(Oc2ccc(NC(=O)CNc3ccccc3-n3cccn3)cc2)cc1  EC50 (Plasmodium falciparum; parasite growth; 3D7; 72 h, blood stage): > 10 µM
O=C(CO)[C@H](O)[C@H](O)COP(=O)(O)O  activity vs control (Cryptosporidium parvum; parasite growth, imaging; HCT-8; 1 mM, 24 h, intracellular): 103%
COc1cc(C#CC(O)c2ccccc2OC)ccc1O (centres unmarked)  activity vs control (Pseudomonas aeruginosa; microbial growth, absorbance; 100 µM, 24 h): 79%
O=c1c(O)c(-c2ccc(O)c(O)c2)oc2cc(O)cc(O)c12  MIC (Staphylococcus aureus; microbial growth; NCTC8325): > 30 µM
CC[C@@H]1/C=C(\C)C[C@H](C)C[C@H](OC)[C@H]2O[C@@](O)(C(=O)C(=O)N3CCCC[C@H]3C(=O)O[C@H](/C(C)=C/[C@@H]3CC[C@H](Cl)[C@H](OC)C3)[C@H](C)[C@@H](O)CC1=O)[C@H](C)C[C@@H]2OC  IC50 (Trypanosoma cruzi; parasite growth, absorbance; Vero, TULAHUEN; 96 h, intracellular, amastigote): 2.16 µM
COc1cc(C#CC(=O)c2cccc(Cl)c2)ccc1O  activity vs control (Pseudomonas aeruginosa; microbial growth, absorbance; 100 µM, 24 h): 95%
CC1(C)S[C@@H]2[C@H](NC(=O)[C@H](N)c3ccccc3)C(=O)N2[C@H]1C(=O)O  MIC90 (Streptococcus pneumoniae; microbial growth; PRSP; clinical isolate): 16 mg/L (≈ 45.8 µM)
COc1cc(C#CC(=O)c2ccccc2Cl)ccc1O  activity vs control (Pseudomonas aeruginosa; microbial growth, absorbance; 100 µM, 24 h): 96%
COc1ccc2cc[nH]c2c1  EC90 (Cryptosporidium parvum; parasite growth; HCT-8; 24 h, intracellular): 746 µM

For quick reference, copied from above:
CN(CC(=O)Nc1ccc(N(C)c2ccc(F)c(F)c2)cc1)c1ccccc1N1CCCC1=O  EC50 (Plasmodium falciparum; parasite growth; 3D7; 72 h, blood stage): 0.051 µM
COc1ccc2[nH]ccc2c1  EC90 (Cryptosporidium parvum; parasite growth; HCT-8; 24 h, intracellular): 1490 µM
C#CCOC(=O)ON=C1C=CC(=C(C#N)c2ccccc2)C=C1  MFC (Candida tropicalis; microbial killing, broth dilution; ATCC13803; 48 h): 16 mg/L (≈ 52.6 µM)
O=C(O)Cc1ccc(O)cc1  activity vs control (Cryptosporidium parvum; parasite growth, imaging; HCT-8; 1 mM, 24 h, intracellular): 106%
Cc1ncc(CO)c(CO)c1O  activity vs control (Cryptosporidium parvum; parasite growth, imaging; HCT-8; 1 mM, 24 h, intracellular): 78.7%
O=c1c(O)c(-c2ccc(O)c(O)c2)oc2cc(O)cc(O)c12  MIC (Staphylococcus aureus; microbial growth; NCTC8325): > 30 µM
OC(C#Cc1ccc(F)c(F)c1)c1ccccc1 (centres unmarked)  activity vs control (Pseudomonas aeruginosa; microbial growth, absorbance; 10 µM, 24 h): 94%
